# Results collected from several papers.
# Each line is one published result; not all experiments were run side by side.
# Organism: Acinetobacter baumannii
SMILES,assay,test system,conditions,MIC
CC(C)C[C@@H]1NC(=O)[C@@H](Cc2ccccc2)NC(=O)[C@H](CCN)NC(=O)[C@@H](NC(=O)[C@H](CCN)NC(=O)[C@@H](N)[C@@H](C)O)CCNC(=O)[C@H]([C@@H](C)O)NC(=O)[C@H](CCN)NC(=O)[C@H](CCN)NC1=O,,ATCC 17978,compound alone,> 200 µg/mL
Cc1c(CN(C)C(=O)/C=C/c2cnc3c(c2)CCC(=O)N3)oc2ccccc12,broth microdilution,AR-0312,,> 32 µg/mL
C[C@@H](O)[C@H]1C(=O)N2C(C(=O)O)=C(S[C@@H]3CN[C@H](C(=O)N(C)C)C3)[C@H](C)[C@H]12,,HR1 clinical isolate,,8 µg/mL
c1ccc(OCCn2c(CNCC34CC5CC(CC(C5)C3)C4)nc3ccccc32)cc1,,ATCC 17961,,> 128 µg/mL
CO/N=C(\C(=O)N[C@@H]1C(=O)N2C(C(=O)O)=C(COC(C)=O)CS[C@H]12)c1csc(N)n1,broth microdilution,NCTC 13424,"20 h, 5% CO2",512 µg/mL
CN(C)c1ccc2nc3ccc(=[N+](C)C)cc-3sc2c1,,"ATCC BAA-1797, resistant","18 h, 37 °C, LED light 10 min, 1.57 mW",> 128 µM
Cc1cc(NS(=O)(=O)c2ccc(N)cc2)no1,broth microdilution,NCTC 13424,"20 h, 5% CO2",> 512 µg/mL
C[C@@H](O)[C@H]1C(=O)N2C(C(=O)O)=C(S[C@@H]3CN[C@H](C(=O)N(C)C)C3)[C@H](C)[C@H]12,broth microdilution,BNCC 194496,,0.25 µg/mL
CC1(C)S[C@@H]2[C@H](NC(=O)C(C(=O)O)c3ccccc3)C(=O)N2[C@H]1C(=O)O (some centres unmarked),broth microdilution,clinical isolate,,> 200 µM
C[C@@H]1O[C@@H]1P(=O)(O)O,broth microdilution,ATCC 17978,,80 µM
C[C@H]1COc2c(N3CCN(C)CC3)c(F)cc3c(=O)c(C(=O)O)cn1c23,broth microdilution,NCTC 13424,"20 h, 5% CO2",32 µg/mL
C=C[C@]1(C)C[C@@H](OC(=O)CS[C@@H]2C[C@H]3CC[C@@H](C2)N3C)[C@]2(C)[C@H](C)CC[C@]3(CCC(=O)[C@H]32)[C@@H](C)[C@@H]1O,broth microdilution,ATCC 17978,,160 µM
CN(C)c1ccc(O)c2c1C[C@H]1C[C@H]3[C@H](N(C)C)C(O)=C(C(N)=O)C(=O)[C@@]3(O)C(O)=C1C2=O,broth microdilution,NCTC 13424,"20 h, ambient air",4 µg/mL
O=[N+]([O-])c1ccc(O)c2ncccc12,,17978,,9.38 µM
Cc1c(CN(C)C(=O)/C=C/c2cnc3c(c2)CC(CCN)C(=O)N3)oc2ccccc12.Cl (centres unmarked),broth microdilution,W41979,,16 µg/mL
NCC[C@H](O)C(=O)N[C@@H]1C[C@H](N)[C@@H](O[C@H]2O[C@H](CN)[C@@H](O)[C@H](O)[C@H]2O)[C@H](O)[C@H]1O[C@H]1O[C@H](CO)[C@@H](O)[C@H](N)[C@H]1O,broth microdilution,NCTC 13424,"20 h, 5% CO2",> 512 µg/mL
NC[C@H]1O[C@H](O[C@H]2[C@H](O)[C@@H](O[C@H]3O[C@H](CO)[C@@H](O)[C@H](N)[C@H]3O)[C@H](N)C[C@@H]2N)[C@H](O)[C@@H](O)[C@@H]1O,broth microdilution,clinical isolate,,> 200 µM
C/C(=C\C(=O)OCCCCCCCCC(=O)O)C[C@@H]1OC[C@H](C[C@@H]2O[C@H]2[C@@H](C)[C@H](C)O)[C@@H](O)[C@H]1O,broth microdilution,ATCC 17978,,320 µM
COc1ccc2ccc(O)c(/C=N/[C@H]3CCCC[C@H]3/N=C/c3ccc(-c4ccccc4)cc3O)c2c1,"bacterial growth, broth microdilution",carbapenem-resistant clinical isolate,,> 40 µM
CC[C@H](C)CCCCC(=O)N[C@@H](CCN)C(=O)N[C@H](C(=O)N[C@@H](CCN)C(=O)N[C@H]1CCNC(=O)[C@H]([C@@H](C)O)NC(=O)[C@H](CCN)NC(=O)[C@H](CCN)NC(=O)[C@H](CC(C)C)NC(=O)[C@@H](Cc2ccccc2)NC(=O)[C@H](CCN)NC1=O)[C@@H](C)O,,"ATCC 17978, CAMHB","20 h, 37 °C",0.5 µg/mL
CCO/N=C(\C(=O)N[C@@H]1C(=O)N2C(C(=O)[O-])=C(Sc3nc(-c4cc[n+](C)cc4)cs3)CS[C@H]12)c1nsc(NP(=O)(O)O)n1,broth microdilution,Mueller-Hinton broth,"24 h, 37 °C",12.5 µM
CNC(C)C1CCC(N)C(OC2C(N)CC(N)C(OC3OCC(C)(O)C(NC)C3O)C2O)O1 (centres unmarked),broth microdilution,ATCC 17978,,0.63 µM
CC[C@H](C)CCCCC(=O)N[C@@H](CCN)C(=O)N[C@H](C(=O)N[C@@H](CCN)C(=O)N[C@H]1CCNC(=O)[C@H]([C@@H](C)O)NC(=O)[C@H](CCN)NC(=O)[C@H](CCN)NC(=O)[C@H](CC(C)C)NC(=O)[C@@H](CC(C)C)NC(=O)[C@H](CCN)NC1=O)[C@@H](C)O,broth microdilution,"ATCC 17978, cation-adjusted Mueller-Hinton broth","18 to 20 h, 37 °C, 0.002% polysorbate 80",0.25 µg/mL
CO/N=C(\C(=O)N[C@@H]1C(=O)N2C(C(=O)O)=C(COC(C)=O)CS[C@H]12)c1csc(N)n1,broth microdilution,,"24 h, 37 °C, clinical isolate",> 400 µM
Cc1cc(Nc2ccc(S(F)(F)(F)(F)F)cc2)n2ccnc2n1,,HR2 clinical isolate,,0.27 µg/mL
CC1(C)S[C@@H]2[C@H](NC(=O)[C@H](N)c3ccccc3)C(=O)N2[C@H]1C(=O)O,,"ATCC BAA-1797, resistant","18 h, 37 °C, LED light 10 min, 1.57 mW",> 128 µM
C[C@H]1COc2c(N3CCN(C)CC3)c(F)cc3c(=O)c(C(=O)O)cn1c23,broth microdilution,ATCC 17978,,0.16 µM
C[C@H](N)C(=O)N[C@H](C(=O)N[C@@H](CS)C(=O)N[C@@H](Cc1ccc(O)cc1)C(=O)N[C@@H](CS)C(=O)N[C@@H](CCCNC(=N)N)C(=O)N[C@H](C(=O)NCC(=O)N[C@@H](CCCNC(=N)N)C(=O)O)[C@@H](C)O)[C@@H](C)O,broth turbidity,,,25 µM
CN(C)[C@@H]1C(O)=C(C(N)=O)C(=O)[C@@]2(O)C(O)=C3C(=O)c4c(O)cccc4[C@@](C)(O)[C@H]3C[C@@H]12,broth microdilution,BNCC 194496,,2 µg/mL
C[C@@H](O)[C@H]1C(=O)N2C(C(=O)O)=C(S[C@@H]3CN[C@H](C(=O)N(C)C)C3)[C@H](C)[C@H]12,broth microdilution,ATCC 17978,,1.3 µM
Cc1c(CN(C)C(=O)/C=C/c2cnc3c(c2)CC(NC(=O)OC(C)(C)C)C(=O)N3)oc2ccccc12 (centres unmarked),broth microdilution,W41979,,> 32 µg/mL
C[C@H]1COc2c(N3CCN(C)CC3)c(F)cc3c(=O)c(C(=O)O)cn1c23,agar dilution,ATCC 19606,,0.25 µg/mL
CNC(C)C1CCC(N)C(OC2C(N)CC(N)C(OC3OCC(C)(O)C(NC)C3O)C2O)O1 (centres unmarked),broth microdilution,NCTC 13424,"20 h, 5% CO2",> 512 µg/mL
N#Cc1ccc2[nH]c(CNCC34CC5CC(CC(C5)C3)C4)nc2c1,,ATCC 17961,,> 128 µg/mL
CCn1cc(C(=O)O)c(=O)c2ccc(C)nc21,broth microdilution,ATCC 17978,,20 µM
CN(C)[C@@H]1C(O)=C(C(N)=O)C(=O)[C@@]2(O)C(O)=C3C(=O)c4c(O)cccc4[C@@](C)(O)[C@H]3C[C@@H]12,broth microdilution,NCTC 13424,"20 h, ambient air",512 µg/mL
Oc1c(Br)cc(Br)c2nc3ccccc3nc12,,17978,,> 100 µM
C[C@@H](O)[C@H]1C(=O)N2C(C(=O)O)=C(S[C@@H]3CN[C@H](C(=O)N(C)C)C3)[C@H](C)[C@H]12,,clinical isolate 1B5,,96 µg/mL

# A few entries again:
SMILES,assay,test system,conditions,MIC
CN(C)c1ccc2nc3ccc(=[N+](C)C)cc-3sc2c1,,"ATCC BAA-1797, resistant","18 h, 37 °C, LED light 10 min, 1.57 mW",> 128 µM
Cc1cc(NS(=O)(=O)c2ccc(N)cc2)no1,broth microdilution,NCTC 13424,"20 h, 5% CO2",> 512 µg/mL
C[C@@H](O)[C@H]1C(=O)N2C(C(=O)O)=C(S[C@@H]3CN[C@H](C(=O)N(C)C)C3)[C@H](C)[C@H]12,broth microdilution,BNCC 194496,,0.25 µg/mL
CC1(C)S[C@@H]2[C@H](NC(=O)C(C(=O)O)c3ccccc3)C(=O)N2[C@H]1C(=O)O (some centres unmarked),broth microdilution,clinical isolate,,> 200 µM
